Measurements from different studies.
Every numbered part comes from another study and shows a few of its results, in no order. Substitutions count along the parent as printed.

Set 1
Target: Probable WRKY transcription factor 50, DNA-binding domain (WRKY50, Arabidopsis thaliana, UniProt Q8VWQ5, residues 99-173)
Method: DNA-protein interaction ELISA
Molecule type: double-stranded DNA, one strand shown
Sample: in vitro, bacterial lysate
Tested at: not given
Setting: whole dsDNA probe, crude lysate protein
Baseline: highest signal in screen
Direction: higher = stronger binding
Residues (chain): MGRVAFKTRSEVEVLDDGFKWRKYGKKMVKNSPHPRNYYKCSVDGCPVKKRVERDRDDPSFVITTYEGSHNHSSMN
With `AAAAAAGAAATACCAGAAACTATCATAAAA` the relative absorbance was 34.6 % of maximum.
For `AAAAAAAGCTTCTATAGCTCCATGGAAAA`, the relative absorbance was 26.7 % of maximum.
With `AAAAAATATATTTTCAGCTTTAATCTAAAA` the relative absorbance was 25.6 % of maximum.
For `AAAAAAAGTTCGCGGATTTCGGCCATAAAA`, the relative absorbance was 17.3 % of maximum.
For `AAAAAAAAGAGCCTGGGGGTTCGCATAAAA`, the relative absorbance was 14.9 % of maximum.
For `AAAAAACAGGCCGATTCCGATCCCGGAAAA`, the relative absorbance was 18.1 % of maximum.
`AAAAAATCGGGCCCCGTTAGCACTCTAAAA` gave a relative absorbance of 15.8 % of maximum.
For `AAAAAACTACTACCTTTGCCTAAGCGAAAA`, the relative absorbance was 13.6 % of maximum.
The relative absorbance of `AAAAAATTTGCGCTTCATCCTGCCCCAAAA` is reported as 29.9 % of maximum.
`AAAAAAATCTTTGCGTCGAGATTCTTAAAA` has a relative absorbance of 17 % of maximum.

Set 2
Target: CCNB1, cyclin fold, Cln2 fusion (human)
Method: yeast growth competition, sequencing
Sample: yeast
Setting: strong parent motif
Baseline: not given
Direction: higher = stronger binding
Parent: PKMYT1 docking peptide (human); SFEPRNLLSLFED; partner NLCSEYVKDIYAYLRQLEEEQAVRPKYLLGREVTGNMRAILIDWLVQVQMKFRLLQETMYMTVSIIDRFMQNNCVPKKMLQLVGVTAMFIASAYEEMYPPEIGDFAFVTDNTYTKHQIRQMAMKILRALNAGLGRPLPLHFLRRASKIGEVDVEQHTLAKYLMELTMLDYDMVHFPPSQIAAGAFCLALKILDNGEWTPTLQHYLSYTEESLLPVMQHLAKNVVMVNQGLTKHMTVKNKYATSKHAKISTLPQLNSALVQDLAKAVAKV
For `SFEPRNLLFLFED [S9F]`, “normalised enrichment score” read 1.3.
`SFEPRNTLSLFED [L7T]`: “normalised enrichment score” -0.295.
`SFEPRNLLMLFED [S9M]` — result for “normalised enrichment score”: 0.399.
`SFEPRNMLSLFED [L7M]`: “normalised enrichment score” 0.19.
`YFEPRNLLSLFED [S1Y]` — result for “normalised enrichment score”: 1.02.
`SFEPRNLASLFED [L8A]` — result for “normalised enrichment score”: 1.15.
`SFEPRNLLSLFEC [D13C]`: “normalised enrichment score” 0.98.
`SFEPRNLLSLMED [F11M]` — result for “normalised enrichment score”: 0.332.
`SFEPRSLLSLFED [N6S]` — result for “normalised enrichment score”: 1.47.
`SFEPRNLLSLFEG [D13G]`: “normalised enrichment score” 0.712.

Set 3
Target: Histone acetyltransferase KAT6A, both winged helices, GST fusion (KAT6A, Homo sapiens, UniProt Q92794, residues 1-181)
Method: protein binding microarray
Molecule type: double-stranded DNA, one strand shown
Sample: in vitro
Tested at: not given
Setting: 8-mer, flanks averaged, mean of 2 arrays, mostly near background
Baseline: not given
Direction: higher = stronger binding
Residues (chain): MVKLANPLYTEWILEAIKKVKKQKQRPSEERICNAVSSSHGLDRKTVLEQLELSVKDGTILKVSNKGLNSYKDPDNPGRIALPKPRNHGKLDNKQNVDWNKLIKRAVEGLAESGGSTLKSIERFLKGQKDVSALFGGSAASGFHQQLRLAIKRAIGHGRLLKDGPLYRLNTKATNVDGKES
`CCACACCC` has an E-score of -0.102.
With `ATGACACA` the E-score was -0.0353.
With `CCAGGAGC` the E-score was -0.0435.
With `GACACCCA` the E-score was -0.174.
`GAATGCAA` has an E-score of -0.0775.
With `AATTTGTC` the E-score was -0.0836.
The E-score of `AGTTGTAG` is reported as -0.0673.
For `AGGTGTGG`, the E-score was -0.0902.

Mixed results
The fold induction of `PhoQ, residues 284 288 289 292 302 303 NSMLDC` is reported as 7 (PhoP, residues 12 14 15 18 19 NMSSL (Escherichia coli, UniProt P23836); Sort-seq, item: YFP reporter; E. coli; PhoQ-PhoP variant library, added: 10 µM Mg2+; baseline: high Mg2+ state, higher = stronger signaling).

Excerpt of the above (set 2):
`SFEPRNLLSLFEC [D13C]`: “normalised enrichment score” 0.98.
`SFEPRNLLSLMED [F11M]` — result for “normalised enrichment score”: 0.332.
`SFEPRSLLSLFED [N6S]` — result for “normalised enrichment score”: 1.47.
